Published values of several laboratories.
Every numbered part comes from another study and shows a few of its results, in no order. Substitutions count along the parent as printed.

Block 1 — method: RNA Bind-n-Seq; molecule type: RNA; medium: in vitro; concentration: 365 nM; relative to: no-protein control; reading: higher = stronger binding; measurement: RBNS enrichment (R)
Target: RNA binding protein fox-1 homolog 2, RRM domain, GST-SBP tag (RBFOX2, Homo sapiens, UniProt O43251-10, residues 100-194)
Notes: natural RNA segment, single round, ends assumed
Target sequence (chain): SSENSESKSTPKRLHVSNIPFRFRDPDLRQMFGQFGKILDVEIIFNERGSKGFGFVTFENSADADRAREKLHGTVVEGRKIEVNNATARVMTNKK
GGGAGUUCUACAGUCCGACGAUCGGUGGGUGGCCCGCAUGCUGGGGAGGGUCUAUAGGAGGUUUGAGCUCAAAUGCUUAAACUGCUGGCAACAUAUAAUAAAUGCAUGCUAUUCAAUGAAUUUCUGCCUAUGAUGGAAUUCUCGGGUGCCAA: 18.7
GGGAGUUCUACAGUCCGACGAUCCACACCAGCCGGGGCUGUACCGCACUCGUGGUGGCUUGUUGUCCUCUCGACUCCUGUGGCAUGGUGCUAGUGCAUGUGACCUGUGCUGUUGUCACCCCAUGUGUUGUGUGUGGAAUUCUCGGGUGCCAA: 22.8
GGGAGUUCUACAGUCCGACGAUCAAACUAGAGGGCGAGAGGGGCCCCUGAAAGUUCCUGUGACAGGGAUGCUCAGCAGGGAGGAGGGAAAGCCUGUAUAGCUAGCCUGACAUUUUGUUUCUUGUACAAUAUCUUGGAAUUCUCGGGUGCCAA: 0.757
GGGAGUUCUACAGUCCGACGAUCUCGUACUACAGAAAUUAAGAUGUUGUCUUGCGAUCCUUAAUAAAUGAAUGAUUUCCCUUUAAUACGGCUGAUGUAUUUUGUAUCCUGUUAUAUUGAGUGUUGGACUGAAGUGGAAUUCUCGGGUGCCAA: 2.98
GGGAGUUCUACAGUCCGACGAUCGUGGGAGAGAACCCGGGGCCUGCUUUUCAAGGAUGAGGAGGAGGCAGGAACAGAAGGCAGCUGCUGCUUUCUGUGGAAACCUGGCCCCUCUGGAAUUGGCCUCUGUGGGCUGGAAUUCUCGGGUGCCAA: 0.557
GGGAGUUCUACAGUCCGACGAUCUAAGCAGAUCUCCUCCCCUGGACCAUGCAAGUCCCUCUCCUUGAAAUGACCACUCCGUAAUAGAACAUUUCAUUCCGUCAGCUGGCCCCCACUUCCUUUCACUCACGCAUUGGAAUUCUCGGGUGCCAA: 0.567
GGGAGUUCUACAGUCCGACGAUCUGGAUGCUUUAUUUGGAUGGCCUGGCAACAUCACAUUUUCUGCAUCACCCUGAGCCCCAUUUGCUUCCCAGCCCUGGAGUUUUUACCCGGCUUUGCCUGCCACCUCUGCCUGGAAUUCUCGGGUGCCAA: 1.19
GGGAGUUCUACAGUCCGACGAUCACAAACAUCAAGCAAUUCAGGUACUAGGAUAACAUGUCAGUUUUGCUGGGUUGGAGGUGGGUAUCAAGUGAUUAUUUCCUAUCAAGACAUCUUUAAAUUAUAGAGCUCAGUGGAAUUCUCGGGUGCCAA: 0.454
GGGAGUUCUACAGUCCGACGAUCUGUAUUGUAUGGUAGCUCUUUGAGCCUUGGUUGGUCGACUCUAGUGUAAGUUUAAUUAAUUGUAUAUUGUGUGAAUAGAACAACUUAAAUAUUACAGCAAUACACUGGGCUGGAAUUCUCGGGUGCCAA: 0.8
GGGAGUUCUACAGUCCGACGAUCAACCUGCAGAAAUCUGGUAAGACUUAAAUUCAGUGUGAGGAAUAACUCUAGUUCUCUCCUAUGAGCAUUUCCUAAAAGCCAUCUGAUUUGGCAUUCUUACUGGAGCUGCAUGGAAUUCUCGGGUGCCAA: 0.625
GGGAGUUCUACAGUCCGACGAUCUACCUAGGAACUGCCUCAACCUCCCACCAGUUCUUCCCUGCCCCUCCCUUCUGUCUAGAUUCACUUCAGUUUAUUGUUGGGAACUGUGCAGGUCCAAGACCUGGACUCCUUGGAAUUCUCGGGUGCCAA: 0.197
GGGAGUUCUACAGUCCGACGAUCAAAGACAGACUGUCCCUAUGCUUGUGCAGCUUACAAUCUAUUUAACUAUUAGAGGCCCUGUGAGAUGUAGGCAGUUAUUUACAGAUGAGAAAACUAACACAGCAGUGGCAUGGAAUUCUCGGGUGCCAA: 1.44

Block 2 — target: CCNB3, cyclin fold, Cln2 fusion (human); method: yeast growth competition, sequencing; medium: yeast; notes: weak parent motif; relative to: not given; reading: higher = stronger binding; measurement: normalised enrichment score
Parent: CABLES2 docking peptide (human); ICAKRSLCAAFSV; partner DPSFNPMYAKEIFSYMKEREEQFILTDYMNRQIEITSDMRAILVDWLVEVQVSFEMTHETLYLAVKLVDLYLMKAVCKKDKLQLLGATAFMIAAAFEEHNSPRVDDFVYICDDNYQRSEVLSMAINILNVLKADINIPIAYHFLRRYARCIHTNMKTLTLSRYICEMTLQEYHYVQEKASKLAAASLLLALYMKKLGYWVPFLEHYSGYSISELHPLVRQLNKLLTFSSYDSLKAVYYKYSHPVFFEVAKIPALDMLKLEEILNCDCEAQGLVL
ICAKRSLCAAFSA [V13A]: 0.405
ICAKRSLCAAFAV [S12A]: 0.528
ICAARSLCAAFSV [K4A]: -0.0746
IAAKRSLCAAFSV [C2A]: 0.00539
ACAKRSLCAAFSV [I1A]: 0.116

Block 3 — method: protein-binding microarray; molecule type: double-stranded DNA, one strand shown; medium: in vitro; concentration: not given; reading: higher = stronger binding; measurement: E-score
Target: Max-binding protein MNT, bHLH-zipper, MAX partner unstated (MNT, Homo sapiens, UniProt Q99583, residues 220-300)
Notes: k-mer, scored over probes, only values ≥0.25
Residues (chain): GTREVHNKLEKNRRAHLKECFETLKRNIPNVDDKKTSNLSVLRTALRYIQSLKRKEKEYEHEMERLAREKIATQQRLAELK
CACGCTCA: 0.302
CATGACAC: 0.318
AGGCCATG: 0.265
CCTCATGC: 0.373
ATGTGCCG: 0.309
CATGTTGA: 0.3
AAGGCACG: 0.296
GGCATCAC: 0.281
CGTGCAAG: 0.314
ACACGCTA: 0.312
ATTCACGC: 0.282
CGTGCGTA: 0.316
CGTGACAC: 0.393
CGACCACG: 0.374
ATGCGTGA: 0.325

Block 4 — method: DHFR PCA, deep sequencing; medium: yeast; added: (+)-ABA 17 µM; relative to: wild-type fitted maximum; reading: higher = stronger binding; measurement: relative binding score
Target: ABI1, truncated, D143A, DHFR fusion (Arabidopsis thaliana)
Notes: methotrexate growth selection, single substitutions
Parent: PYL1, truncated, DHFR fusion (Arabidopsis thaliana); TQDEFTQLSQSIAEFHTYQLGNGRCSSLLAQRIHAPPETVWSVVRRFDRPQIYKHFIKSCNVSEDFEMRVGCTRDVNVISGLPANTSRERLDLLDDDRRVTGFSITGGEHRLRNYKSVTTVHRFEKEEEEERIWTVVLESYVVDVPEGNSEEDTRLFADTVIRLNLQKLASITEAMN
E129A: 93%
G23I: 21.8%
F103V: -7.17%
G71D: 14.8%
A84S: 29.1%
S150M: 21.9%
R74A: 3.43%
I33E: -18.9%
P36K: 75.4%
L93A: 60.4%
G148A: 47.2%
T160K: 62.2%

Block 5 — target: MAFF, bZIP domain (human); method: DHFR protein complementation; medium: yeast; relative to: wild-type JUN-FOS pair; reading: higher = stronger binding; measurement: binding fitness
Notes: single substitutions, most at no-binding floor
Parent: JUN, bZIP domain (human); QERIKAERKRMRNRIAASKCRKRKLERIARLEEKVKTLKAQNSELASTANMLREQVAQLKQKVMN; partner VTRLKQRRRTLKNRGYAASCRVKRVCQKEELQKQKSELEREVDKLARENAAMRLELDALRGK
K34R: -1.33 natural log
N42A: -1.03 natural log
R30W: -1.36 natural log
L59G: -1.4 natural log
Q41D: -1.53 natural log
N42D: -1.48 natural log
S47C: -1.43 natural log
K36V: -1.51 natural log
L31M: -1.34 natural log
E32Y: -1.44 natural log
R53H: -1.15 natural log
S47V: -1.39 natural log
K39N: -1.62 natural log
A29V: -1.33 natural log
A46T: -1.38 natural log
K36D: -1.43 natural log
A46W: -1.51 natural log
S47L: -1.41 natural log
M51L: -1.51 natural log
T48G: -1.47 natural log
A49N: -1.35 natural log
L31I: -1.55 natural log
E44I: -1.49 natural log
E44V: -1.28 natural log

Block 6 — target: UBE2E1 UBC core domain (UniProt P51965); method: yeast two-hybrid; medium: yeast; notes: mostly zero background; relative to: not given; reading: higher = stronger interaction; measurement: lacZ reporter activity
Chain of UniProt P51965 (whole entry, looked up): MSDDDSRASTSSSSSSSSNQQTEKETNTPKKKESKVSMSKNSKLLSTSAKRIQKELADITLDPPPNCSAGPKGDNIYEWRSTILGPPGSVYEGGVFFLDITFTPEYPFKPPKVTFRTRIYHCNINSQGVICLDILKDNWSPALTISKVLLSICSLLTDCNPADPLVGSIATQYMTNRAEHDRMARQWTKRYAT
B1: PRKN RING domain (UniProt O60260); chain LIATNSRNITCITCTDVRSPVLVFQCNSRHVICLDCFHLYCVTRLNDRQFVHDPQLGYSLPCVAGCPNSLIKELHH
B2: DTX1 RING domain (UniProt Q86Y01); chain QKVKNPPDEDCTICMERLVTASGYEGVLRHKGVRPELVGRLGRCGHMYHLLCLVAMYSNGNKDGSLQCPTCKAIYGEKTGTQ
B3: TRIM22 RING domain (UniProt Q8IYM9); chain KEVKMSPQEGQKRDVCEHHGKKLQIFCKEDGKVICWVCELSQEHQGHQTFRINEVVKECQEK
B4: RNF135 RING domain (UniProt Q8IUD6); chain PVWLAEDDLGCIICQGLLDWPATLPCGHSFCRHCLEALWGARDARRWACPTCRQGAAQQPHLR
B5: RNF24 RING domain (UniProt Q9Y225); chain KVKELNLHELCAVCLEDFKPRDELGICPCKHAFHRKCLIKWLEVRKVCPLCNMPVLQLAQLH
MDDQGCPRCKTTKYRNPSLKLMVNVCGHTLCESCVDLLFVRGAGNCPECGTPLRKSNFRV (MNAT1 RING domain (UniProt P51948)): 0
KITELNPHLMCVLCGGYFIDATTIIECLHSFCKTCIVRYLETSKYCPICDVQVHKTRPLL (BMI1 RING domain (UniProt P35226)): 0
B1 (PRKN RING domain): 0
B2 (DTX1 RING domain): 7440
B3 (TRIM22 RING domain): 0
B4 (RNF135 RING domain): 0
B5 (RNF24 RING domain): 0

Block 7 — method: protein binding microarray; molecule type: double-stranded DNA, one strand shown; medium: in vitro; concentration: not given; relative to: not given; reading: higher = stronger binding; measurement: E-score
Target: Histone acetyltransferase KAT6A, winged helix 2, GST fusion (KAT6A, Homo sapiens, UniProt Q92794, residues 85-181)
Notes: 8-mer, flanks averaged, mean of 2 arrays, mostly near background
Construct (chain): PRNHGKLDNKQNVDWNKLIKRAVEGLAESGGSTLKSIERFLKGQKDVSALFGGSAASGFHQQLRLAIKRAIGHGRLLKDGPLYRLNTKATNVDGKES
GATTAGGC: 0.00084
CCCGAAAC: -0.0139
ATTGGGAA: -0.054
AGATTCTC: 0.00961
ACTCTTAT: 0.0609
GACCTGTA: -0.287
AGGATATG: -0.0634
ATACAGTC: -0.302
CAGTTACC: -0.121
ACCTAGGT: -0.145
AACCCAGC: 0.0204
GCACTTAC: -0.228
AACCACTC: 0.00974
GAGATTAA: -0.0182
GTATTCGA: -0.188
CGGGGCGC: 0.188
GTCAATAA: -0.123
ACCTTCTA: 0.00651
TAGATGCA: -0.0949
ACAGGCTA: -0.148
AGATGTAT: -0.081
CGATGTAC: -0.225

Excerpt of the above (block 5):
N42A: -1.03 natural log
M51L: -1.51 natural log
A29V: -1.33 natural log
N42D: -1.48 natural log
A46W: -1.51 natural log
L31M: -1.34 natural log
R30W: -1.36 natural log
R53H: -1.15 natural log
S47L: -1.41 natural log
L31I: -1.55 natural log
A49N: -1.35 natural log
